Assay results pooled from the literature.
Lines come from different studies, so protocols differ. ± gives the spread as reported. Values after ≈ are worked out from the molar mass of the structure shown.

Under “log2 fold change”, COC1CN([C@H]2CC[C@H]([C@@]3(C)Oc4c(Cl)cc(C(=O)NCc5c(SC)cc(C)[nH]c5=O)c(C)c4O3)CC2)C1 is recorded as 1.33 (RNA-seq, measured: GADD45A mouse homolog; mouse, HT-1376 xenograft, whole blood; dose not given; reference: vehicle).
For CNS(=O)(=O)Nc1nccc(Cc2c(C)c3ccc(Oc4ncccc4F)cc3oc2=O)c1F, the IC50 was 0.295 µM (Caco-2; cell viability; 7 days).
With N=C(S)N/N=C/c1ncc(C(F)(F)F)cc1Cl the AC50 was 15.8 µM (Mus musculus; gene silencing, high-content imaging; LDR reporter GFP cells; retest run 2).
C=C(NC(=O)c1csc(-c2nc3c(cc2O)-c2nc(cs2)C(=O)NC(C(C)O)C(=O)NC(=C(C)OC)c2nc(cs2)C(=O)NC2c4nc(cs4)C(=O)NC(COC(=O)c4c5c6c(cccc6n4O)COC(=O)C(OC4CC(C)(O)C(N(C)C)C(C)O4)C2OC5)c2nc-3cs2)n1)C(N)=O (centres unmarked) gave an MIC50 of 7.8 ng/mL (≈ 5.43 nM) (Staphylococcus epidermidis).
C[n+]1ccc(/C=N/NC(=O)c2cccc(C(=O)N/N=C/c3cc[n+](C)c4ccccc34)c2)c2ccccc21 has a ΔTm of 0.4 ± 0.1 °C (hp2 hairpin duplex DNA; FRET melting; 1 µM, together with: ds26 10 µM).
For C=CC(=O)Nc1cccc(Cn2ncc3cnc(Nc4cnn(CCOC)c4)nc32)c1, “percent of control” read 90% (WNK2 human; binding, KINOMEscan; 100 nM; lower = stronger binding).
With C[n+]1cc(NC(=O)c2ccc3ccc4ccc(C(=O)Nc5cc6ccccc6[n+](C)c5)nc4c3n2)cc2ccccc21 the delta Tm was 7.9 °C (MYC promoter parallel G-quadruplex DNA; UV melting; 3 µM, 1 mM potassium, together with: DNA 3 µM).
For COC1OC(C)C(OS(=O)(=O)O)C(OC2OC(C)C(OS(=O)(=O)O)C(OC3OC(C)C(OS(=O)(=O)O)C(OC4OC(C)C(OS(=O)(=O)O)C(OC5OC(C)C(OS(=O)(=O)O)C(OC6OC(C)C(OS(=O)(=O)O)C(OC7OC(C)C(OS(=O)(=O)O)C(OC8OC(C)C(OS(=O)(=O)O)C(OS(=O)(=O)O)C8OS(=O)(=O)O)C7OS(=O)(=O)O)C6OS(=O)(=O)O)C5OS(=O)(=O)O)C4OS(=O)(=O)O)C3OS(=O)(=O)O)C2OS(=O)(=O)O)C1OS(=O)(=O)O (centres unmarked), “prothrombin time prolongation” read 0.95 fold (human plasma; 128 µg/mL; reference: control).
For CCN(CC)CC(=O)Nc1cccc(-n2cc(-c3ccc4ccc(-c5cn(-c6cccc(NC(=O)CN(CC)CC)c6)nn5)cc4c3)nn2)c1, the fold regulation was -1.42 fold (RCC4; PCR angiogenesis array, measured: THBS2; 5 x IC50, 4 h, normoxia; reference: untreated).
For C[n+]1cc(/C=N/NC(=O)c2cc(C(=O)N/N=C/c3cc4ccccc4[n+](C)c3)ncn2)cc2ccccc21, the ΔTm was 1.5 ± 0.9 °C (hp2 hairpin duplex DNA; FRET melting; 1 µM).
COc1ccc2c(C)nc(Nc3nc(O)cc(-c4ccccc4)n3)nc2c1 has an Emax of 55% (Mus musculus; gene silencing, high-content imaging; LDR reporter GFP cells; 30 h, retest run 1).
The prothrombin time of COC1OC(C)C(O)C(OC2OC(C)C(O)C(OC3OC(C)C(O)C(OC4OC(C)C(O)C(OC5OC(C)C(O)C(OC6OC(C)C(O)C(OC7OC(C)C(O)C(OC8OC(C)C(O)C(OS(=O)(=O)O)C8OS(=O)(=O)O)C7OS(=O)(=O)O)C6OS(=O)(=O)O)C5OS(=O)(=O)O)C4OS(=O)(=O)O)C3OS(=O)(=O)O)C2OS(=O)(=O)O)C1OS(=O)(=O)O (centres unmarked) is reported as 14.9 ± 0.5 s (human plasma; 128 µg/mL).
The ΔTm of CC[n+]1cccc2cc(/C=N/NC(=O)c3ccc4ccc5ccc(C(=O)N/N=C/c6ccc7c(ccc[n+]7CC)c6)nc5c4n3)ccc21 is reported as 2.7 ± 1.4 °C (hp2 hairpin duplex DNA; FRET melting; 1 µM).
COc1ccc(NC(=O)CSc2nc3c(oc4ccccc43)c(=O)n2Cc2ccco2)cc1Cl gave an EC50 of 10 µM (Mus musculus; gene silencing, high-content imaging; LDR reporter GFP cells; retest, mean of two runs).
Cc1ncsc1-c1ccc(C(C)NC(=O)C2CC(O)CN2C(=O)C(NC(=O)CCCCCCCCCCN2CCCC(Nc3ncc(Cl)c(Nc4ccccc4S(=O)(=O)C(C)C)n3)C2)C(C)(C)C)cc1 (centres unmarked) — result for “log2 fold change”: -1.39 (22Rv1; RNA-seq, measured: SOGA1 mRNA; concentration not given; reference: DMSO).
C[n+]1ccc(/C=N/NC(=O)c2ccc3ccc4ccc(C(=O)N/N=C/c5cc[n+](C)c6ccccc56)nc4c3n2)c2ccccc21 has a ΔTm of -0.3 ± 2.3 °C (hp2 hairpin duplex DNA; FRET melting; 1 µM).
With Nc1ncc(-c2cc(-c3cnn(CC(F)(F)F)c3)ncc2F)nc1C(=O)NC1CNCC(F)C1 (centres unmarked) the remaining binding was 63% (TNIK; KINOMEscan; 1 µM; reference: DMSO control).
